Experimental data of several laboratories.
Compare with care: the assays were run in different laboratories.

Structure (SMILES)	test	test system	conditions	measurement	result
Cn1cncc1-c1c(F)cncc1NC(=O)c1c(N)nn2cc(F)cnc12	–	human patients	oral, 150 mg twice daily, 4 days on 3 days off	patients grade ≥3 Hyperkalemia	0%
O=C1Nc2cc3[nH]nc(-c4ccncc4)c3cc2CN1Cc1ccccc1	CTCAE v4.03	human, relapsed or refractory advanced solid tumours	intravenous, 4.8 mg/kg, pooled schedules	patients with QTc prolongation	0%
C=CC(=O)Nc1cc(Nc2nccc(Nc3cc(Cl)c(F)cc3C(C)(C)O)n2)c(OC)cc1N1CC[C@@H](N(C)C)C1	–	human patients	oral, 50 mg, treatment-emergent adverse events	patients with mouth ulceration	0%
COc1ncnn2ccc(-c3cnc4nc(C)n(Cc5nnc([C@@H](C)F)o5)c4c3)c12	–	human	oral, dose not given, grade 4	patients with stomatitis	0%
CNC(=O)c1cc(Oc2ccc(NC(=O)Nc3cc(C(C)(C)C)nn3-c3ccc4ncccc4c3)c(F)c2)ccn1	phase clinical trial	human patients	oral, 100 mg twice daily, at dose onset	patients with related malignant hypertension	6%
Cc1cn([C@H]2O[C@@H](CO[P@@](=O)(N[C@@H](C)C(=O)OC(C)C)Oc3ccccc3)[C@H](O)[C@H]2F)c(=O)[nH]c1=O	item: Flu	human	10 mg	patients with TEAE	0%
COc1ccc(-c2c(-c3ccc(C#N)c(F)c3)nc(N3CCC(N)CC3)n(C)c2=O)cc1F	item: respiratory failure	human patients	oral, dose not given, dose escalation	patients with serious TEAE	0%
C[C@@H]1OC(=O)NN=C1c1ccc(-c2ccc(F)cc2)c(C(F)(F)F)c1	phase I trial, item: Diarrhoea all grades	human patients	5 mg loading then 0.25 mg daily	patients with adverse event	0%
C[C@]1(O)C[C@@](N)(c2ccc(-c3nc4n(c3-c3ccccc3)COc3ccncc3-4)cc2)C1	–	human, advanced or metastatic solid tumours	once daily, dose escalation total, any grade	patients with Diarrhea TEAE	33.3%

Excerpt of the above:
Structure (SMILES)	test	test system	conditions	measurement	result
C[C@@H]1OC(=O)NN=C1c1ccc(-c2ccc(F)cc2)c(C(F)(F)F)c1	phase I trial, item: Diarrhoea all grades	human patients	5 mg loading then 0.25 mg daily	patients with adverse event	0%
